# Measured values of several laboratories.
# Each line is one published result; not all experiments were run side by side.
SMILES,assay,system,setting,quantity,value
CN1CCN(c2cccc3c2CCN(C(=O)/C=C/c2c(-n4cnnn4)ccc(Cl)c2F)[C@@H]3C(=O)Nc2ccc(C(=O)O)cc2)C(=O)C1,,healthy human subjects,"intravenous infusion, 3 mg/h, 5 days",subjects with treatment-related adverse event,0%
CC(C)(C(=O)N1CCOc2c(C#N)cncc2C1)C(F)F,measured: tandem gait test abnormal,"human, both sexes","oral, 20 mg once daily, 14 days, multiple ascending dose",subjects with TEAE,0%
CC(C)n1c(Nc2cccnc2)nc2cnc(Nc3ccc(N4CCN(C)CC4)cc3)nc21,measured: diastolic blood pressure increased,"healthy human, male","oral, dose not given, CTCAE grade 1-3",subjects with TEAE,4.8%
CNC(=O)c1ccc(-c2cnc3ncc(Cc4ccc5ncccc5c4)n3n2)cc1F,,healthy human subjects,"oral, 400 mg, Diarrhea, grade 3, all causality, together with: rifampicin 600 mg/day",subjects with adverse event,0%
C[C@H]1CN(C(=O)CC#N)[C@]12CCN(c1ncnc3[nH]ccc13)C2,,healthy human,"oral, 6 mg single",subjects with Nausea,12.5%
C[C@@H](Oc1ccc(S(C)(=O)=O)cc1C(=O)N1C[C@@H]2C[C@]2(c2cc(C(F)(F)F)on2)C1)C(F)(F)F,,human,"oral plus intravenous microtracer, dose not given",subjects with related GI disorders,0%
Cc1cc(Nc2cc3ncccc3c(N[C@@H]3C[C@H]4CC[C@@H](C3)N4CCC#N)n2)n[nH]1,,healthy human,"oral, 30 mg multiple doses, 14 days",subjects with contact dermatitis,0%
Cc1cc(-c2nccc3c2ccn3CC(=O)Nc2ccc(-c3cnccn3)cn2)ccn1,,human,"SAD part, single 40 mg dose",subjects with Vomiting TEAEs,16.7%

# Excerpt of the above:
SMILES,assay,system,setting,quantity,value
C[C@H]1CN(C(=O)CC#N)[C@]12CCN(c1ncnc3[nH]ccc13)C2,,healthy human,"oral, 6 mg single",subjects with Nausea,12.5%
